{"data": "Measured values from different studies", "rep main protease": "Replicase polyprotein 1ab, main protease (rep, Severe acute respiratory syndrome coronavirus 2, UniProt P0DTD1)", "note": "Lines come from different studies, so protocols differ. ± marks the error that the study gave."}
{"Compound": "CC(C)=CCc1c(O)ccc(C(=O)/C=C/c2ccc(O)cc2)c1O", "target or system": "SARS-CoV-2", "assay": "viral cytopathic effect", "system": "Vero E6", "conditions": "12.5 µM", "endpoint": "inhibition", "value": "0%"}
{"Compound": "C/C=C(\\NC(=O)C(NC(=O)CNC(=O)C(C)(O)C(O)/C=C\\C(C)=C/C(C)CC)[C@H](C)O)C(=O)NC(C(=O)NC1C(=O)NC(COC)C(=O)NCC(=O)N[C@@H](C)C(=O)N(C)C([C@@H](C)O)C(=O)NC(C(OC)c2ccc(O)cc2)C(=O)N2CCCCC2C(=O)OC1C(C)C)[C@@H](C)[C@@H](C)C(N)=O (stereo partly shown)", "target or system": "SARS-CoV-2", "assay": "viral replication, mNeonGreen reporter virus", "conditions": "50 µM", "endpoint": "inhibition", "value": "6.86%"}
{"Compound": "O=C(CSc1nc2c(c(=O)[nH]1)CCCC2)NNC(=O)c1ccc([N+](=O)[O-])cc1", "target or system": "SARS-CoV-2", "assay": "virucidal activity, plaque reduction", "conditions": "31.25 µM", "endpoint": "inhibition", "value": "22.2 ± 5.1%"}
{"Compound": "Nc1ncnc2c([C@@H]3N[C@H](CO)[C@@H](O)[C@H]3O)c[nH]c12", "target or system": "Lassa mammarenavirus", "assay": "viral replication", "system": "HeLa, Josiah", "conditions": "0.4 µM", "endpoint": "inhibition", "value": "4.3%"}
{"Compound": "O=C(Nc1cccnc1)c1cc(-c2ccnc(F)c2)ccc1OCc1ccccc1", "target or system": "SARS-CoV-2", "assay": "viral replication", "system": "Vero E6, USA-WA1/2020", "conditions": "2.5 µM", "endpoint": "inhibition", "value": "42.1%"}
{"Compound": "O=C(O)CCC(=O)C(=O)O", "target or system": "rep main protease", "assay": "reporter gene (Gaussia luciferase), inhibitor", "conditions": "20 µM", "endpoint": "inhibition", "value": "1.4%"}
{"Compound": "Cc1nn(-c2ccc(Cl)cc2)c2c1C(c1c(Cl)cccc1Cl)C(C#N)=C(N)O2 (stereo not shown)", "target or system": "SARS-CoV-2", "assay": "viral replication", "system": "Vero", "conditions": "1 µM", "endpoint": "inhibition", "value": "5.3%"}
{"Compound": "CCN(CCO)CCCC(C)Nc1ccnc2cc(Cl)ccc12 (stereo not shown)", "target or system": "SARS-CoV-2", "conditions": "15 µM", "endpoint": "inhibition", "value": "17.9%"}
{"Compound": "Cc1nn(-c2ccc(Cl)cc2)c2c1C(c1ccc(Cl)c(Cl)c1)C(C#N)=C(N)O2 (stereo not shown)", "target or system": "SARS-CoV-2", "assay": "viral replication", "system": "Vero", "conditions": "1 µM", "endpoint": "inhibition", "value": "3.03%"}
{"Compound": "Cc1c(Cl)c(=O)oc2cc(OP(=O)(OCCCl)OCCCl)ccc12", "target or system": "SARS-CoV-2", "assay": "viral replication", "system": "Vero E6, USA-WA1/2020", "conditions": "2.5 µM", "endpoint": "inhibition", "value": "46.5%"}
{"Compound": "CCOC(=O)[C@H]1O[C@@H]1C(=O)N[C@@H](CC(C)C)C(=O)NCCC(C)C", "target or system": "SARS-CoV-2", "conditions": "15 µM", "endpoint": "inhibition", "value": "40.7%"}
{"Compound": "CCC(CC)COC(=O)[C@H](C)N[P@](=O)(OC[C@H]1O[C@@](C#N)(c2ccc3c(N)ncnn23)[C@H](O)[C@@H]1O)Oc1ccccc1", "target or system": "SARS-CoV-2", "assay": "viral replication, measured: nucleocapsid", "system": "NHBE, Omicron BA.5", "conditions": "1 µM, 3 h pretreatment", "endpoint": "inhibition", "value": "77.7%"}
{"Compound": "COc1ccc(C[C@@H]2c3cc(Oc4cc(C[C@@H]5c6cc(O)c(OC)cc6CCN5C)ccc4O)c(OC)cc3CCN2C)cc1", "target or system": "SARS-CoV-2", "assay": "viral cytopathic effect", "system": "Vero E6", "conditions": "12.5 µM", "endpoint": "inhibition", "value": "0%"}
{"Compound": "CC(C)(C)NCc1ccc(Nc2ccnc3cc(Cl)ccc23)cc1O", "target or system": "SARS-CoV-2", "assay": "viral replication", "system": "Vero E6, USA-WA1/2020", "conditions": "2.5 µM", "endpoint": "inhibition", "value": "54.9%"}
{"Compound": "Cn1cnc(Cn2c(=O)[nH]/c(=N\\c3cc4cn(C)nc4cc3Cl)n(Cc3cc(F)c(F)cc3F)c2=O)n1", "target or system": "SARS-CoV-2", "assay": "viral replication", "system": "Vero C1008, XBB.1", "conditions": "0.05144 µM", "endpoint": "inhibition", "value": "20%"}
{"Compound": "Fc1ccc(-c2ccc(CN3CCN(c4cccc5ccoc45)CC3)[nH]2)cc1", "target or system": "SARS-CoV-2", "assay": "viral replication", "system": "Vero E6, USA-WA1/2020", "conditions": "2.5 µM", "endpoint": "inhibition", "value": "67.6%"}
{"Compound": "CC[C@H](C)[C@H](NC(=O)[C@H](CC(C)C)NC(=O)[C@H](Cc1c[nH]c2ccccc12)NC(=O)[C@H](CCC(N)=O)NC(=O)[C@@H](NC(=O)[C@H](Cc1ccccc1)NC(=O)[C@H](C)NC(=O)[C@H](CCCCNC(=O)COCCOCCNC(=O)COCCOCCNC(=O)CC[C@H](NC(=O)CCCCCCCCCCCCCCCCCCC(=O)O)C(=O)O)NC(=O)[C@H](CCC(N)=O)NC(=O)[C@H](C)NC(=O)[C@@H](NC(=O)[C@H](CCCCN)NC(=O)[C@H](CC(=O)O)NC(=O)[C@H](CC(C)C)NC(=O)C(C)(C)NC(=O)[C@@H](NC(=O)[C@H](CO)NC(=O)[C@H](Cc1ccc(O)cc1)NC(=O)[C@H](CC(=O)O)NC(=O)[C@H](CO)NC(=O)[C@@H](NC(=O)[C@H](Cc1ccccc1)NC(=O)[C@@H](NC(=O)CNC(=O)[C@H](CCC(=O)O)NC(=O)C(C)(C)NC(=O)[C@@H](N)Cc1ccc(O)cc1)[C@@H](C)O)[C@@H](C)O)[C@@H](C)CC)[C@@H](C)CC)C(C)C)C(=O)N[C@@H](C)C(=O)NCC(=O)NCC(=O)N1CCC[C@H]1C(=O)N[C@@H](CO)C(=O)N[C@@H](CO)C(=O)NCC(=O)N[C@@H](C)C(=O)N1CCC[C@H]1C(=O)N1CCC[C@H]1C(=O)N1CCC[C@H]1C(=O)N[C@@H](CO)C(N)=O", "system": "healthy subjects, single ascending dose", "conditions": "5.0 mg, baseline", "endpoint": "serum lipase", "value": "26.7 ± 9.3 U/L"}
{"Compound": "O=C(CSc1nc2c(c(=O)[nH]1)CCCC2)NNC(=O)c1ccc(Cl)cc1", "target or system": "SARS-CoV-2", "assay": "virucidal activity, plaque reduction", "conditions": "125 µM", "endpoint": "inhibition", "value": "53%"}
{"Compound": "CC(CC(=O)C[C@@H](C)[C@H]1CC(=O)[C@@]2(C)C3=C(C(=O)C[C@]12C)[C@@]1(C)CC[C@H](O)C(C)(C)[C@@H]1C[C@@H]3O)C(=O)O (stereo partly shown)", "target or system": "rep main protease", "assay": "reporter gene (mKate2), inhibitor", "conditions": "20 µM", "endpoint": "inhibition", "value": "-0.237%"}
{"Compound": "COc1ccc([C@H]2COc3cc(O)ccc3C2)c(O)c1", "target or system": "SARS-CoV-2", "assay": "viral replication", "system": "mNeonGreen reporter", "conditions": "50 µM", "endpoint": "inhibition", "value": "102%"}
{"Compound": "CC[C@H](NC(=O)[C@H](CS(=O)(=O)CC1CC1)N[C@@H](c1ccc(F)cc1)C(F)(F)F)C(=O)C(=O)NC1CC1", "target or system": "SARS-CoV-2", "assay": "viral replication", "system": "Vero C1008, USA-WA1/2020", "conditions": "2.5 µM, reconfirmation", "endpoint": "inhibition", "value": "94.9%"}
{"Compound": "CC(C)(C)[C@H](NC(=O)C(F)(F)F)C(=O)N1CC2(CC2)C[C@H]1C(=O)N[C@H](C#N)C[C@@H]1CCNC1=O", "target or system": "SARS-CoV-2", "assay": "viral replication, qRT-PCR viral RNA", "system": "Vero E6", "conditions": "10 µM", "endpoint": "inhibition", "value": "100%"}
{"Compound": "NCCCNCCCN1CCCCCCCCCCCC1", "target or system": "SARS-CoV-2", "assay": "viral replication, mNeonGreen reporter virus", "conditions": "50 µM", "endpoint": "inhibition", "value": "32.1%"}
{"Compound": "Cn1cnc(Cn2c(=O)[nH]/c(=N\\c3cc4cn(C)nc4cc3Cl)n(Cc3cc(F)c(F)cc3F)c2=O)n1", "system": "human, moderate renal impairment", "conditions": "oral, 375 mg", "endpoint": "any TEAE, moderate severity", "value": "12.5%"}
{"Compound": "O=C(CSc1nc2ccccc2c(=O)[nH]1)NNC(=O)c1ccccc1Br", "target or system": "SARS-CoV-2", "assay": "virucidal activity, plaque reduction", "conditions": "125 µM", "endpoint": "inhibition", "value": "47.8 ± 5.1%"}
{"Compound": "CNC(=O)[C@@H](NC(=O)[C@H](CC(C)C)[C@H](O)C(=O)NO)C(C)(C)C", "target or system": "C2C12", "conditions": "1 µM, added: WB venom", "scale": "reference: venom alone", "endpoint": "viability difference", "value": "3.99%"}
{"Compound": "CC(C)(C)[C@H](NC(=O)C(F)(F)F)C(=O)N1C[C@H]2[C@@H]([C@H]1C(=O)N[C@H](C#N)C[C@@H]1CCNC1=O)C2(C)C", "target or system": "SARS-CoV-2", "assay": "viral replication, infectious virus", "system": "Vero E6", "conditions": "0.5 µM", "endpoint": "inhibition", "value": "93.8%"}
{"Compound": "Cc1nn(-c2ccc(Cl)cc2)c2c1C(c1ccc(-c3ccccc3)cc1)C(C#N)=C(N)O2 (stereo not shown)", "target or system": "SARS-CoV-2", "assay": "viral replication", "system": "Vero", "conditions": "1 µM", "endpoint": "inhibition", "value": "10.9%"}
{"Compound": "CCN(CC)CCCNc1ccnc2cc(Cl)ccc12", "target or system": "SARS-CoV-2", "assay": "viral replication", "system": "Vero E6, USA-WA1/2020", "conditions": "2.5 µM", "endpoint": "inhibition", "value": "53.3%"}
{"Compound": "Cc1nn(-c2ccc(Cl)cc2)c2c1C(c1ccc(Cl)cc1)C(C#N)=C(N)O2 (stereo not shown)", "target or system": "SARS-CoV-2", "assay": "viral replication", "system": "Vero", "conditions": "1 µM", "endpoint": "inhibition", "value": "12.9%"}
{"Compound": "Cc1ccn(-c2ccc(C(=O)N3Cc4cccnc4Nc4ccccc43)c(C(F)(F)F)c2)n1", "target or system": "SARS-CoV-2", "assay": "viral replication", "system": "Vero C1008, USA-WA1/2020", "conditions": "2.5 µM, reconfirmation", "endpoint": "inhibition", "value": "59.5%"}
{"Compound": "O=C(O[C@@H]1Cc2c(O)cc(O)cc2O[C@@H]1c1cc(O)c(O)c(O)c1)c1cc(O)c(O)c(O)c1", "target or system": "SARS-CoV-2", "assay": "viral cytopathic effect", "system": "Vero E6", "conditions": "3.125 µM", "endpoint": "inhibition", "value": "0%"}
{"Compound": "C/C(=C\\c1ccc(C(=O)O)cc1)c1ccc2c(c1)C(C)(C)CCC2(C)C", "target or system": "SARS-CoV-2", "assay": "viral replication", "system": "Vero E6, USA-WA1/2020", "conditions": "2.5 µM", "endpoint": "inhibition", "value": "41.1%"}
{"Compound": "O=C(/C=C/c1ccc(O)c(O)c1/C=C/c1ccc(O)c(O)c1)O[C@H](Cc1ccc(O)c(O)c1)C(=O)O", "target or system": "SARS-CoV-2", "assay": "cytopathic effect", "system": "Vero E6", "conditions": "100 µM, first run", "endpoint": "inhibition", "value": "50%"}
{"note": "Some of these lines once more:"}
{"Compound": "O=C(O)CCC(=O)C(=O)O", "target or system": "rep main protease", "assay": "reporter gene (Gaussia luciferase), inhibitor", "conditions": "20 µM", "endpoint": "inhibition", "value": "1.4%"}
{"Compound": "Cc1nn(-c2ccc(Cl)cc2)c2c1C(c1ccc(-c3ccccc3)cc1)C(C#N)=C(N)O2 (stereo not shown)", "target or system": "SARS-CoV-2", "assay": "viral replication", "system": "Vero", "conditions": "1 µM", "endpoint": "inhibition", "value": "10.9%"}
{"Compound": "CC(C)=CCc1c(O)ccc(C(=O)/C=C/c2ccc(O)cc2)c1O", "target or system": "SARS-CoV-2", "assay": "viral cytopathic effect", "system": "Vero E6", "conditions": "12.5 µM", "endpoint": "inhibition", "value": "0%"}
{"Compound": "O=C(CSc1nc2c(c(=O)[nH]1)CCCC2)NNC(=O)c1ccc([N+](=O)[O-])cc1", "target or system": "SARS-CoV-2", "assay": "virucidal activity, plaque reduction", "conditions": "31.25 µM", "endpoint": "inhibition", "value": "22.2 ± 5.1%"}
{"Compound": "O=C(O[C@@H]1Cc2c(O)cc(O)cc2O[C@@H]1c1cc(O)c(O)c(O)c1)c1cc(O)c(O)c(O)c1", "target or system": "SARS-CoV-2", "assay": "viral cytopathic effect", "system": "Vero E6", "conditions": "3.125 µM", "endpoint": "inhibition", "value": "0%"}
